Measurements from different studies.
Each numbered part is a random draw from the data of one study; scales do not carry over between parts. Positions count from the first letter of the parent shown.

Study 1
Target: Histone acetyltransferase KAT6A, both winged helices, GST fusion (KAT6A, Homo sapiens, UniProt Q92794, residues 1-181)
Technique: protein binding microarray
Molecule type: double-stranded DNA, one strand shown
Medium: in vitro
Tested at: not given
Notes: 8-mer, flanks averaged, mean of 2 arrays, mostly near background
Reference: not given
Direction: higher = stronger binding
Construct (chain): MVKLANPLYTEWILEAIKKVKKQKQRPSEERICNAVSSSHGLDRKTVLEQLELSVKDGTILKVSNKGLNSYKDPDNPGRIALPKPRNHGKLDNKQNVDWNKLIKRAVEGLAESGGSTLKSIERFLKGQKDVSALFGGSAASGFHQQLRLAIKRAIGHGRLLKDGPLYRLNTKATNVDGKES
Strand	E-score
CGGTCCAG	0.1
CACCCGTA	0.163
ACATGTCG	0.0282
CAAGATAG	-0.115
ACGTTCCA	-0.16
GACCCAGC	-0.0786
GGTTATAA	0.0229
AACATGTC	0.061
GTATACGA	-0.0834
CAATTACC	-0.0562
CATCACCC	0.0689
ATTTTGGG	-0.204
CCTGAAAA	-0.0636
AGAACGAC	-0.0119
AATGAATC	-0.188
AGTACACG	0.117
ATTGACGC	0.101
TCAATAGA	-0.19
AATGGATC	0.0501
TGACTGCA	-0.109
GGCCTGTA	0.0661
GCCGAACA	0.17
AACACCCG	0.206
GAACTATA	-0.0248
CCTGCGGA	0.0341

Study 2
Target: ABI1, truncated, D143A, DHFR fusion (Arabidopsis thaliana)
Technique: DHFR PCA, deep sequencing
Medium: yeast
Notes: methotrexate growth selection, single substitutions
Added: (+)-ABA 2500 µM
Reference: wild-type fitted maximum
Direction: higher = stronger binding
Starting sequence: PYL1, truncated, DHFR fusion (Arabidopsis thaliana); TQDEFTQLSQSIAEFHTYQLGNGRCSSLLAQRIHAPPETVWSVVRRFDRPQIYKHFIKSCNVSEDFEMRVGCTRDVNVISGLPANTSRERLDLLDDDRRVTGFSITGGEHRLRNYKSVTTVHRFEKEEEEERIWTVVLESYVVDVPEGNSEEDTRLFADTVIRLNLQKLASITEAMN; partner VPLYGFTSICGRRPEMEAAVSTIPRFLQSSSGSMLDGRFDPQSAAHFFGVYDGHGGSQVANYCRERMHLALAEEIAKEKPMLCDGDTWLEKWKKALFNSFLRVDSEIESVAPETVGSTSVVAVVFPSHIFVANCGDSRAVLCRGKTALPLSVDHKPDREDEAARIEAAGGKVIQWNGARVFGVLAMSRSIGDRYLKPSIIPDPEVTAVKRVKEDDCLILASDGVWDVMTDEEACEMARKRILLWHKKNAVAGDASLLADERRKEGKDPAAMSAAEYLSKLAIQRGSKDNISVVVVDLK
Variant	relative binding score
D95C	80.7%
V44I	97.4%
V161F	94.9%
E38K	95.3%
V62I	93.6%
W41N	-18.9%
G23N	101%
D95Q	94%
P146Q	74.2%
R132D	102%
D95T	68%
R123G	98.8%
T154G	65.6%
E152T	95.9%

Study 3
Target: Interferon regulatory factor 7, full length, phosphomimetic (IRF7, Homo sapiens, UniProt Q92985, residues 1-503, S101K/S471D/S472D/S475D/S476D/S477D/S483D/S484D/S487D)
Chain of UniProt Q92985 (whole entry, unmodified, looked up): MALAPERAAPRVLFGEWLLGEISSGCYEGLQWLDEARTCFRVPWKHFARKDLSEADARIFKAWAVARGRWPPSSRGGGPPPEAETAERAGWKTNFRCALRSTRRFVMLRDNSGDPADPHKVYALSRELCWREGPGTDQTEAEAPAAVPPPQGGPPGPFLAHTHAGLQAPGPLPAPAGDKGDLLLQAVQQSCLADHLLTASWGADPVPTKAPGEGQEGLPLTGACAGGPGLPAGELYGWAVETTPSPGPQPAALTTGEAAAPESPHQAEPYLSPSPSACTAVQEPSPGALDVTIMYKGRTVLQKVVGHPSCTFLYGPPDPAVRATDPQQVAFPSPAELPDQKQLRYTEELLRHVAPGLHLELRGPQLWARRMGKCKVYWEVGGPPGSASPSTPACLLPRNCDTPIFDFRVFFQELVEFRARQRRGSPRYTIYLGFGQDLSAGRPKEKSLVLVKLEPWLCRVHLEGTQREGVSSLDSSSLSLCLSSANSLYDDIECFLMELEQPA
Technique: protein-binding microarray
Molecule type: double-stranded DNA, one strand shown
Medium: in vitro
Tested at: 250 nM
Notes: 60-bp whole probe
Added: salmon DNA 0.4 mg/ml
Reference: random background probes
Direction: higher = stronger binding
Constant ends, left off below: GCCTAGCAC … GTCTTGATTCGCTTGACGCTGCTG
Strand	log fluorescence
TTAGGTTTCGGATTGGGTTAGTGCTAG	12.1 z-score
GACGATATAAGACTGGAGACGTGCTAG	-0.0448 z-score
GCAACACTCACCATGGCTAGGTGCTAG	-0.0809 z-score
TTCCAATTCTCTTTTCACTTGTGCTAG	1.95 z-score
TCATCCTCCTCTCTCTTACTGTGCTAG	1.14 z-score
GACGGTATCGACTATCGGCACGTGCTA	-0.232 z-score
TTAGGTATCAGTCTCGGTTAGTGCTAG	1.73 z-score
TCATTATTAGTGACTCAGACTGTGCTA	0.746 z-score
TTAGATATCGGGTATCGATTCGTGCTA	2.48 z-score
TCAACTTTGCTCTGTGCGACTGTGCTA	-0.357 z-score
GACGAACTGGGGAATGGAGACGTGCTA	-0.224 z-score
TCAAAAGTGTTTCTCAAACTGTGCTAG	-0.0532 z-score
GACGATATCGAGACTGGAGACGTGCTA	0.418 z-score
TTAGGACTGGGTATCGGGTAGTGCTAG	0.0652 z-score
CCCACCTCTCACGGGCTTGTGTGCTAG	0.172 z-score
GACGGTATCGGTTTCAGGACGTGCTAG	4.93 z-score
GACGGTTTCCGGACTGGGGACGTGCTA	1.02 z-score
AGTGTGGTCTGTTTCTGATAGTGCTAG	-0.251 z-score
TTAGGTATCGATATCGGTTAGTGCTAG	2.72 z-score

Study 4
Target: CCNB2, cyclin fold, Cln2 fusion (human)
Technique: yeast growth competition, sequencing
Medium: yeast
Notes: weak parent motif
Reference: not given
Direction: higher = stronger binding
Starting sequence: WEE1 docking peptide (human); HKTFRKLRLFDTP
Variant	normalised enrichment score
F4C	0.433
L9E	0.837
L7G	1.27
T12L	0.427
K6Y	0.479
T12W	0.417
P13I	0.285
D11I	0.396
T3L	-0.148
F10H	0.484
R5H	0.982
F10E	0.273
F10T	0.52
K2T	1.17
L9F	0.634

Study 5
Target: Ras GTPase-activating protein-binding protein 1, RRM domain (G3BP1, Homo sapiens, UniProt Q13283)
Chain of UniProt Q13283 (whole entry, looked up): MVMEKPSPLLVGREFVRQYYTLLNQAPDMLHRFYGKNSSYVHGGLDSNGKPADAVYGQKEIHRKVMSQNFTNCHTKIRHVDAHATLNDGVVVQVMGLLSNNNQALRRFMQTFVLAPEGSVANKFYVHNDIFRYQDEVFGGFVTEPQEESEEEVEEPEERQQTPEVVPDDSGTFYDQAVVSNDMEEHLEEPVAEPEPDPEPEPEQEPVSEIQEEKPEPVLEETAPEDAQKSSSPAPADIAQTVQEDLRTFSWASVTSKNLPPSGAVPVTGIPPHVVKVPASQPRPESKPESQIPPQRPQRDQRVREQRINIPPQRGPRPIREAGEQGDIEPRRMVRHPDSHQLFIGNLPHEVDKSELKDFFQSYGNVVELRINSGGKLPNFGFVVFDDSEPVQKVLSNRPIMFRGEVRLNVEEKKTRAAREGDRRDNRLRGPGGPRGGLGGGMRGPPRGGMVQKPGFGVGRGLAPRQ
Technique: RNA Bind-n-Seq
Molecule type: RNA
Medium: in vitro
Tested at: 1 µM
Notes: whole 134-nt RNA, ends assumed
Added: 150 mM KCl
Reference: input library
Direction: higher = stronger binding
Constant ends, left off below: GGGAGUUCUACAGUCCGACGAUC … UGGAAUUCUCGGGUGUCAAGG
Strand	log2 enrichment
CUCAAGUCCUGUGCUACACAUCGUAUGUACCGAAUCGGUGGAAAAAAAGGUGGAAAGUAUUAUGUUACGCCGUUCGGAUCUGCACUUCCA	-0.166
AAGUCCUGUGCUACACAUCGUAUGUACCGAAUCGGUUUUUUUGGAAAAAGGAAAGGAAAGUAUUAUGUUACGCCGUUCGGAUCUGCACUU	-0.379
UGGCCCUGGUGGCAUGCGGGGAGGAAGAGGUGGCCUCAUGGAUCGUGGUGGUCCCGGUGGAAUCUUCAGAGGUGGCCGUGGUGGAGACAG	0.743
AGUCCUGUGCUACACAUCGUAUGUACCGAAUCGGGUUUUUUUGGGUUUUUGGGAGGGAAAGUAUUAUGUUACGCCGUUCGGAUCUGCACU	0.298
UGGCCCUGGUGGCAUGCGGGGAGGAAGAGGUGGCCUCAUGGAUCGUGGUGGUCCCGGUGGAAUGUUCAGAGGUGGCCGUGGUGGAGACAA	1.19
CCUGUGCUACACAUCGUAUGUACCGAAUCGGAAAAAAGGGGAAAAAAGGGAAAAAAGGGGAAAGUAUUAUGUUACGCCGUUCGGAUCUGC	0.0461
CACAGACAACACGCACCCACACAGACACAGAGGUAAGGGGUUGGGAUGGGGACAGGGUGCACAGCAGGGCGGGGUAGGACCCCAGCCCCU	0.0536

A few entries again (study 1):
Strand	E-score
CCTGAAAA	-0.0636
AATGAATC	-0.188
AATGGATC	0.0501
GGCCTGTA	0.0661
GAACTATA	-0.0248
ACATGTCG	0.0282
